{"data": "Results gathered from unrelated publications", "note": "Compare with care: the assays were run in different laboratories. ± gives the spread as reported."}
{"SMILES": "CC(C)Cc1ccc(C(C)C(=O)N/N=C/c2ccc(OCC(=O)N/N=C/c3c(O)ccc4ccccc34)cc2)cc1 (centres unmarked)", "cell line": "HEK293", "assay": "MTT", "setting": "80 µM, 48 h", "viability": "28.6%"}
{"SMILES": "COc1ccc([C@@H]2CC(=O)c3c(O)cc(O[C@@H]4O[C@H](CO[C@@H]5O[C@@H](C)[C@H](O)[C@@H](O)[C@H]5O)[C@@H](O[C@H]5O[C@H](CO)[C@@H](O)[C@H](O)[C@H]5O)[C@H](O)[C@H]4O)cc3O2)cc1O", "cell line": "MRC5", "assay": "cell growth or viability, MTS", "setting": "150 µg/mL, 72 h", "viability": "49.8%"}
{"SMILES": "Cc1ncsc1-c1ccc(CNC(=O)[C@@H]2C[C@@H](O)CN2C(=O)[C@@H](NC(=O)COCc2cn(CCOCCOCCOc3cc(C(=O)c4cc(Cl)ccc4NS(=O)(=O)c4ccc(C(C)(C)C)cc4)cc[n+]3[O-])nn2)C(C)(C)C)cc1", "cell line": "HEK293T", "setting": "0.1 to 2500 nM, 14 h", "viability": "not toxic"}
{"SMILES": "COc1cc(C=CC(=O)CC(=O)C=Cc2ccc(OCC(=O)NCCOCCOCCOCCOCCOCCOCCOCC(F)(F)F)c(OC)c2)ccc1O", "cell line": "SH-SY5Y", "assay": "MTT", "setting": "0.9 µM, 24 h", "viability": "94.7 ± 6.7%"}
{"SMILES": "CC(C)Cc1ccc(C(C)C(=O)N/N=C/c2ccc(OCC(=O)N/N=C/c3cccc(O)c3)cc2)cc1 (centres unmarked)", "cell line": "HEK293", "assay": "MTT", "setting": "40 µM, 48 h", "viability": "55.2%"}
{"SMILES": "O=C1/C(=C/c2ccc3c(c2)OCCO3)SC(=S)N1[C@@H]1O[C@H](CO)[C@@H](O)[C@H](O)[C@H]1O", "cell line": "THLE-2", "assay": "cell growth or viability, MTT", "setting": "100 µM, 48 h", "viability": "~75%"}
{"SMILES": "O=C(Cc1c(-c2ccccc2)n[nH]c1-c1ccccc1)NO", "cell line": "SH-SY5Y", "assay": "CytoTox-ONE", "setting": "30 µM, 24 h, 10% FBS", "viability": "92%"}
{"SMILES": "COc1ccc(C(=O)Nc2cccc(S(N)(=O)=O)c2)cc1OC", "cell line": "HEK293T", "assay": "MTT", "test system": "serum-free medium", "setting": "100 µM, 24 to 48 h", "scale": "reference: untreated", "viability": "72 ± 0.2%"}
{"SMILES": "O=S(=O)(O)CC1CSSCC(CS(=O)(=O)O)SS1 (centres unmarked)", "cell line": "OECM1", "setting": "50 or 100 µM, 4 d", "viability": "no effect"}
{"SMILES": "COc1cccc(/C=N/NC(=O)COc2ccc(/C=N/NC(=O)C(C)c3ccc(CC(C)C)cc3)cc2)c1O (centres unmarked)", "cell line": "HEK293", "assay": "MTT", "setting": "80 µM, 48 h", "viability": "49.8%"}
{"SMILES": "CCCCc1ccc(N2C(=O)/C(=N\\NC(=N)N)c3cc(C)ccc32)cc1", "cell line": "BJ normal fibroblasts", "assay": "MTT", "setting": "up to 2 µg/mL, 24 h", "viability": "> 80%"}
{"SMILES": "CC(C)Cc1ccc(C(C)C(=O)N/N=C/c2ccc(OCC(=O)N/N=C/c3ccc([N+](=O)[O-])cc3)cc2)cc1 (centres unmarked)", "cell line": "HEK293", "assay": "MTT", "setting": "40 µM, 48 h", "viability": "48.5%"}
{"SMILES": "CC(C)CCC[C@@H](C)[C@H]1CC[C@@H]([C@@H]2CC[C@H]3C[C@H](O)CC[C@]3(C)C2=O)[C@]1(C)CC(=O)NCC(=O)O", "cell line": "HEK293T", "assay": "CellTiter-Blue", "setting": "10 µM", "viability": "> 100%"}
{"SMILES": "COc1cc(C=CC(=O)CC(=O)C=Cc2ccc(OCC(=O)NCCOCCOCCOCC(F)(F)F)c(OC)c2)ccc1O", "cell line": "SH-SY5Y", "assay": "MTT", "setting": "0.9 µM, 24 h", "viability": "95.2 ± 6%"}
{"SMILES": "CC(C)Cc1ccc(C(C)C(=O)NN=Cc2ccc(OCC(=O)NN=Cc3cccc([N+](=O)[O-])c3)cc2)cc1 (centres unmarked)", "cell line": "HEK293", "assay": "MTT", "setting": "40 µM, 48 h", "viability": "102%"}
{"SMILES": "CC(C)CCC[C@@H](C)[C@H]1CCC([C@@H]2CC[C@H]3C[C@H](O)CC[C@]3(C)[C@@H]2O)[C@]1(C)CC(=O)O (some centres unmarked)", "cell line": "HEK293T", "assay": "CellTiter-Blue", "setting": "10 µM", "viability": "> 100%"}
{"SMILES": "N=C(N)NCCC[C@@H]1NC(=O)[C@H](CCCNC(=N)N)NC(=O)[C@H](CCCNC(=N)N)NC(=O)[C@H](Cc2c[nH]c3ccccc23)NC(=O)[C@H](Cc2c[nH]c3ccccc23)NC(=O)[C@H](Cc2c[nH]c3ccccc23)NC(=O)[C@H](Cc2c[nH]c3ccccc23)NC(=O)[C@H](CCCNC(=N)N)NC1=O", "cell line": "SK-OV-3", "assay": "MTS", "setting": "50 µM, 24 h", "viability": "~78%"}
{"note": "A few entries again:"}
{"SMILES": "O=C(Cc1c(-c2ccccc2)n[nH]c1-c1ccccc1)NO", "cell line": "SH-SY5Y", "assay": "CytoTox-ONE", "setting": "30 µM, 24 h, 10% FBS", "viability": "92%"}
{"SMILES": "COc1ccc(C(=O)Nc2cccc(S(N)(=O)=O)c2)cc1OC", "cell line": "HEK293T", "assay": "MTT", "test system": "serum-free medium", "setting": "100 µM, 24 to 48 h", "scale": "reference: untreated", "viability": "72 ± 0.2%"}
